Values quoted from earlier work as cited in several papers.
Each line is one published result; not all experiments were run side by side. ± gives the spread as reported.

O=C1c2cccc3c2[C@H](CCC3)CN1[C@@H]1CN2CCC1CC2  IC50 (hERG (human); inhibitor): 2.04 µM
CCCCCCCN(CC)CCCC(O)c1ccc(NS(C)(=O)=O)cc1 (stereo not drawn)  fraction unbound (mouse): 0.114
c1ccc2c(c1)Cc1ccccc1-2  bioconcentration factor (fish; dose not given, experimental mean): 468 L/kg
CCCCCOc1ccc(-c2ccc(-c3ccc(C(=O)N[C@H]4C[C@@H](O)[C@@H](O)NC(=O)[C@@H]5[C@@H](O)[C@@H](C)CN5C(=O)[C@H]([C@@H](C)O)NC(=O)[C@H]([C@H](O)[C@@H](O)c5ccc(O)cc5)NC(=O)[C@@H]5C[C@@H](O)CN5C(=O)[C@H]([C@@H](C)O)NC4=O)cc3)cc2)cc1  volume of distribution (human renal impairment moderate; 50 mg single dose): 35.6 ± 9.4 L
O=C(O)C(F)(F)C(F)(F)C(F)(F)C(F)(F)C(F)(F)C(F)(F)C(F)(F)C(F)(F)C(F)(F)F  IC50 (CYP1A2; inhibitor; Tox21 screening): inactive
CCN(CC)C(=O)/C(C#N)=C/c1cc(O)c(O)c([N+](=O)[O-])c1  fraction unbound (dog): 0.02
O=C(O)C(F)(F)C(F)(F)C(F)(F)C(F)(F)C(F)(F)C(F)(F)F  IC50 (CYP1A2; inhibitor; Tox21 screening): inactive
O=C(O)[C@@H](c1ccccc1)[C@@H]1CCCCN1  half-life (human, CES1 wild type, plasma; oral, 10 mg methylphenidate, single dose, median): 6.9 h
COc1ccc2c(c1)c(CC(=O)O)c(C)n2C(=O)c1ccc(Cl)cc1  fraction unbound (mouse): 0.052
FC(F)OC(F)(F)C(F)Cl (stereo not drawn)  IC50 (CYP1A2; inhibitor; Tox21 screening): 35.5 µM
O=C1NC(=O)C(c2ccccc2)(c2ccccc2)N1  fraction unbound (dog): 0.259
N.O=C(O)C(F)(F)C(F)(F)C(F)(F)C(F)(F)C(F)(F)C(F)(F)C(F)(F)F  IC50 (CYP3A4; inhibitor; Tox21 screening): inactive

Repeated from above:
O=C(O)C(F)(F)C(F)(F)C(F)(F)C(F)(F)C(F)(F)C(F)(F)C(F)(F)C(F)(F)C(F)(F)F  IC50 (CYP1A2; inhibitor; Tox21 screening): inactive
